{"data": "Results pooled from the literature", "note": "Parts stem from different laboratories: compare values within a part only. Values joined by “and” are separate records of one study, mostly repeats; a detail may differ.", "UniProt P22607, sequence (whole entry, looked up)": "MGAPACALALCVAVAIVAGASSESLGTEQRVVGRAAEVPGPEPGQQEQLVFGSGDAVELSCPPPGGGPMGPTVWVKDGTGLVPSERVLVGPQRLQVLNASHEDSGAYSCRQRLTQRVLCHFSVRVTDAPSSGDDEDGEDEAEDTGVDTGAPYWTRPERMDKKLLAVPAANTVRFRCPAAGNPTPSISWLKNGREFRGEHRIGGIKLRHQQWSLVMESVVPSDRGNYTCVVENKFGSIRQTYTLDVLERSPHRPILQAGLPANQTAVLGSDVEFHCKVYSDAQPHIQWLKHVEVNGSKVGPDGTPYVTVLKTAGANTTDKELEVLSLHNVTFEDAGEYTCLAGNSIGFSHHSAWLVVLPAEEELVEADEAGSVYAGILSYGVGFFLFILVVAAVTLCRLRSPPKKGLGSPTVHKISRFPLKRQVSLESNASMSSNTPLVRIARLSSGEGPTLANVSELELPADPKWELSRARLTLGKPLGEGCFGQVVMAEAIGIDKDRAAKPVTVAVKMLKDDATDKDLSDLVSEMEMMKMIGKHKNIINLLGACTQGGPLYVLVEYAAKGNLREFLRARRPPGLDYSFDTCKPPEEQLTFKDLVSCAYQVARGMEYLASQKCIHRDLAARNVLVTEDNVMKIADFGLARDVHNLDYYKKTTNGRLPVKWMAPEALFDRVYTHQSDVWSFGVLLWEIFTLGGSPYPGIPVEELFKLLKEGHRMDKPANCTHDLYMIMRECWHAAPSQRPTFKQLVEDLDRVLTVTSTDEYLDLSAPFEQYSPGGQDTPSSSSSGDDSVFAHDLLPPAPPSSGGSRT", "UniProt O43283, sequence (whole entry, looked up)": "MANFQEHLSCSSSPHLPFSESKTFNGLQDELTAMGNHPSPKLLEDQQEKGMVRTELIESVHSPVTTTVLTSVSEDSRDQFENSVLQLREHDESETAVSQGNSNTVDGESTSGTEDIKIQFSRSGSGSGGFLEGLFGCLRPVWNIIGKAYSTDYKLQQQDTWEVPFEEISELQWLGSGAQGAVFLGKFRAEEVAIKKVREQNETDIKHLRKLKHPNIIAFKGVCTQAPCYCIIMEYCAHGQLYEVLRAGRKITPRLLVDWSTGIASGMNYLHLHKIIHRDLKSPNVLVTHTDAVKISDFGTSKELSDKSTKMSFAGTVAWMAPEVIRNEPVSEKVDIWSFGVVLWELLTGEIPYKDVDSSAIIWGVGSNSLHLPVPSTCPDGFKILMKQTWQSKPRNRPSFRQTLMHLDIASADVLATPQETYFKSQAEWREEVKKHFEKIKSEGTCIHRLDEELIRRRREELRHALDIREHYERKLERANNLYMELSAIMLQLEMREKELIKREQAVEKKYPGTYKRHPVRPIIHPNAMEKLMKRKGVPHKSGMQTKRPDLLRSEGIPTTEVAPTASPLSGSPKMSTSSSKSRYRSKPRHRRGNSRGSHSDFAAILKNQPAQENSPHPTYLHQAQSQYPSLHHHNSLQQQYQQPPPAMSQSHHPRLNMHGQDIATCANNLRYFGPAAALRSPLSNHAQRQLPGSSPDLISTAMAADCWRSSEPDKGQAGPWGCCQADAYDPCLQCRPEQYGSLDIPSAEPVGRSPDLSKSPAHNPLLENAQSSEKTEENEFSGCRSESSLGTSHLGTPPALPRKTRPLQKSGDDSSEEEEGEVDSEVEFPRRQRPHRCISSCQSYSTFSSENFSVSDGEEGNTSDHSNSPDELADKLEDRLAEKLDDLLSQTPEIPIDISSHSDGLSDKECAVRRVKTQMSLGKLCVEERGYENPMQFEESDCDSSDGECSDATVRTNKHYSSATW", "UniProt P10721, sequence (whole entry, unmodified, looked up)": "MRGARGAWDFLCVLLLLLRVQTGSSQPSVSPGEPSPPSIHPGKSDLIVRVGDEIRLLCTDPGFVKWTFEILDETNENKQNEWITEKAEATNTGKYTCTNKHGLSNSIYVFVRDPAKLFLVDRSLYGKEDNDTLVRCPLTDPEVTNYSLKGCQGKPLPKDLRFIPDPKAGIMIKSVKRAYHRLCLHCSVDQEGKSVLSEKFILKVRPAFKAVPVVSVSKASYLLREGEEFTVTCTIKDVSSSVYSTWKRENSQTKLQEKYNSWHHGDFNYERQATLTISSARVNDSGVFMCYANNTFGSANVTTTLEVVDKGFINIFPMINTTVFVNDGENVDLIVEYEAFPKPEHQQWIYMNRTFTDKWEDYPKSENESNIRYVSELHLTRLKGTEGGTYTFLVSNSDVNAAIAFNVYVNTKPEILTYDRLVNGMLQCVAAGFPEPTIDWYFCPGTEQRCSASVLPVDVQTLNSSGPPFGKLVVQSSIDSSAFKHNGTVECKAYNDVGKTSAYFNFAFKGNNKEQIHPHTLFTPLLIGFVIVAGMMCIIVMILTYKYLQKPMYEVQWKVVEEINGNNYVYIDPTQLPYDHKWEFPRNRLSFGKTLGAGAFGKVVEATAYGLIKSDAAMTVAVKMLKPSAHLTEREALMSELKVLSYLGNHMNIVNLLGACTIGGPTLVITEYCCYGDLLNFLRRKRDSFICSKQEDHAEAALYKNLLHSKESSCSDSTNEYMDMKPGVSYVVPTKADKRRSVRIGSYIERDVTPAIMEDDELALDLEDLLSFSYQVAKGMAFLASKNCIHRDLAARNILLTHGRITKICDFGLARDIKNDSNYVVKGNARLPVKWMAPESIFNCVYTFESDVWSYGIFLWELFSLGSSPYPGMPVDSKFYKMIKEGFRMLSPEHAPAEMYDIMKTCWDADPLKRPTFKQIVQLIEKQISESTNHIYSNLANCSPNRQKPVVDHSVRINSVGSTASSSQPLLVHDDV", "UniProt P55212, sequence (whole entry, looked up)": "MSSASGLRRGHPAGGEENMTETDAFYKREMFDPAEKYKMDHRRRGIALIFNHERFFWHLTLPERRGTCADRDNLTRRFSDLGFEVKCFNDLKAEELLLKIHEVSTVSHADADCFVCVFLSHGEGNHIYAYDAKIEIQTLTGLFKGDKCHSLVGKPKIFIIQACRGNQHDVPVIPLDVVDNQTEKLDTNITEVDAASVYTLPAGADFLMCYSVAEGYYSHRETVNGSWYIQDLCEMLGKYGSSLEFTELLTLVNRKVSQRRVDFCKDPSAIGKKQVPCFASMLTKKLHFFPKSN", "UniProt P21580, sequence (whole entry, looked up)": "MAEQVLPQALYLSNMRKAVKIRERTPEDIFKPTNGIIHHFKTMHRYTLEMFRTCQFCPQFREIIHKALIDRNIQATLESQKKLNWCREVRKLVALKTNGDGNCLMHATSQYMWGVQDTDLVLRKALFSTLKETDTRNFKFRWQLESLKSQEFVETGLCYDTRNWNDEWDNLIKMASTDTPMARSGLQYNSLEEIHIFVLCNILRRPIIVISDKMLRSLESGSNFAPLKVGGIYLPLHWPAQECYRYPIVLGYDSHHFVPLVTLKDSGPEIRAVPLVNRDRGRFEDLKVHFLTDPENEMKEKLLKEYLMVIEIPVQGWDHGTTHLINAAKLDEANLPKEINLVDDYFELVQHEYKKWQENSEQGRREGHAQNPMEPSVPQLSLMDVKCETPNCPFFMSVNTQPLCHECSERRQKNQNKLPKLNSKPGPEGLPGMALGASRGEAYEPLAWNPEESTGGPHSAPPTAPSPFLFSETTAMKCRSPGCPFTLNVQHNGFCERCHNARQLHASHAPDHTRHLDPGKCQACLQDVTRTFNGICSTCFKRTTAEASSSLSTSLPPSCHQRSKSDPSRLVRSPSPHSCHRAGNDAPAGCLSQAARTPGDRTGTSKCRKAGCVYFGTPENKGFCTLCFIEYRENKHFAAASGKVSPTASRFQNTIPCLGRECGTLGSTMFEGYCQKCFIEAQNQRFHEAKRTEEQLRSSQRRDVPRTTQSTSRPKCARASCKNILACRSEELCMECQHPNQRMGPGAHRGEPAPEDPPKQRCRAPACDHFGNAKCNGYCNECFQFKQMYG", "UniProt Q13705, sequence (whole entry, looked up)": "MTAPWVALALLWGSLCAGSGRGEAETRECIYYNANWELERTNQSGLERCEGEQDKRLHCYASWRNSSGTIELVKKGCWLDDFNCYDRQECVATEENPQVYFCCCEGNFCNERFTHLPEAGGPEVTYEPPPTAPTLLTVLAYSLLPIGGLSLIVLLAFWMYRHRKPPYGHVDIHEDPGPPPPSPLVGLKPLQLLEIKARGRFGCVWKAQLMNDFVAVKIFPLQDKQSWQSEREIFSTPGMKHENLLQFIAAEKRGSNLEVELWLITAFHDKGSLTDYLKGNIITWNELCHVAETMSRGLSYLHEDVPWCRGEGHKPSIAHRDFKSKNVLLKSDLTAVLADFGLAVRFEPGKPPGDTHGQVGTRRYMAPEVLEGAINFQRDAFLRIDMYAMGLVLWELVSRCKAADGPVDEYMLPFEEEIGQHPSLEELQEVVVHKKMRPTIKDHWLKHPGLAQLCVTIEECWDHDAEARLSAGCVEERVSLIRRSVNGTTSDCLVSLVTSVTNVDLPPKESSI", "UniProt Q9BRS2, sequence (whole entry, looked up)": "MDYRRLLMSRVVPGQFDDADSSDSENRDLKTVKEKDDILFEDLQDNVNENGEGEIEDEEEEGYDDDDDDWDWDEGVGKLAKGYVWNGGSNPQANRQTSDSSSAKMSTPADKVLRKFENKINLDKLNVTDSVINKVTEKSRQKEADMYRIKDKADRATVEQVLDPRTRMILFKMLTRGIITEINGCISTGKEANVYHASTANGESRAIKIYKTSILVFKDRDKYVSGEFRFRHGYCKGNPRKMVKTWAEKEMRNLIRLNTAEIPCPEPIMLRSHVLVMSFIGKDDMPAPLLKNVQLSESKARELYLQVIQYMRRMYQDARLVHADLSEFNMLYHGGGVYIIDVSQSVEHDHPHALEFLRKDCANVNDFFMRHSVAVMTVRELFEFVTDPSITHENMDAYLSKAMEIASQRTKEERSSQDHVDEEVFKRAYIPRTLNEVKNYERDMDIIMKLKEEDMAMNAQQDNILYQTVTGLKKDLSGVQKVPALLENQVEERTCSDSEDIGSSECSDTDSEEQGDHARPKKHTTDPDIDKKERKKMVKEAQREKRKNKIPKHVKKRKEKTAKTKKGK"}
{"data": "Study 1", "Structure (SMILES)": "N#CC1(c2ccccn2)CCN(Cc2cc(C(=O)O)c(=O)n3ccccc23)CC1", "read-out": "cell-free assay", "technique": "competition with immobilised ligand", "concentration": "1 µM"}
{"target": "Epidermal growth factor receptor (EGFR, Homo sapiens, UniProt P00533, del752-759)", "remaining binding [%]": 96}
{"target": "Activin receptor type-2B (ACVR2B, Homo sapiens, UniProt Q13705)", "remaining binding [%]": 97}
{"target": "Serine/threonine-protein kinase SIK3 (SIK3, Homo sapiens, UniProt Q9Y2K2)", "remaining binding [%]": 97}
{"target": "Epidermal growth factor receptor (EGFR, Homo sapiens, UniProt P00533, G719S)", "remaining binding [%]": 90}
{"target": "Eukaryotic translation initiation factor 2-alpha kinase 1 (EIF2AK1, Homo sapiens, UniProt Q9BQI3)", "remaining binding [%]": 86}
{"target": "Serine/threonine-protein kinase RIO1 (RIOK1, Homo sapiens, UniProt Q9BRS2)", "remaining binding [%]": 88}
{"target": "Mitogen-activated protein kinase kinase kinase 13 (MAP3K13, Homo sapiens, UniProt O43283)", "remaining binding [%]": 78}
{"target": "Ribosomal protein S6 kinase alpha-5, N-terminal kinase domain (RPS6KA5, Homo sapiens, UniProt O75582)", "remaining binding [%]": 100}
{"target": "Fibroblast growth factor receptor 3 (FGFR3, Homo sapiens, UniProt P22607)", "remaining binding [%]": 100}
{"target": "Tyrosine-protein kinase ABL1, phosphorylated (ABL1, Homo sapiens, UniProt P00519, Y253F)", "remaining binding [%]": 72}
{"target": "Dual specificity testis-specific protein kinase 1 (TESK1, Homo sapiens, UniProt Q15569)", "remaining binding [%]": 100}
{"target": "Receptor-type tyrosine-protein kinase FLT3 (FLT3, Homo sapiens, UniProt P36888, D835H)", "remaining binding [%]": 100}
{"target": "SRSF protein kinase 1 (SRPK1, Homo sapiens, UniProt Q96SB4)", "remaining binding [%]": 100}
{"target": "Epidermal growth factor receptor (EGFR, Homo sapiens, UniProt P00533, del746-750)", "remaining binding [%]": 100}
{"target": "Phosphatidylinositol 4,5-bisphosphate 3-kinase catalytic subunit alpha isoform (PIK3CA, Homo sapiens, UniProt P42336, M1043I)", "remaining binding [%]": 91}
{"target": "Mast/stem cell growth factor receptor Kit (KIT, Homo sapiens, UniProt P10721, D816V)", "remaining binding [%]": 100}
{"target": "Serine/threonine-protein kinase 38-like (STK38L, Homo sapiens, UniProt Q9Y2H1)", "remaining binding [%]": 80}
{"target": "Wee1-like protein kinase 2 (WEE2, Homo sapiens, UniProt P0C1S8)", "remaining binding [%]": 100}
{"target": "Serine/threonine-protein kinase PLK4 (PLK4, Homo sapiens, UniProt O00444)", "remaining binding [%]": 90}
{"data": "Study 2", "cell line": "HEK-293T/ACE2", "concentration": "10 µM", "time": "16 h", "relative to": "vehicle"}
{"Compound": "CCn1cc(C(=O)O)c(=O)c2ccc(C)nc21", "viability [%]": 104}
{"Compound": "COc1cc(NC(C)CCCN)c2ncccc2c1 (stereo not shown)", "viability [%]": 102}
{"Compound": "NS(=O)(=O)c1cc2c(cc1Cl)NCNS2(=O)=O", "viability [%]": 102}
{"Compound": "Nc1nc2[nH]cc(CCc3ccc(C(=O)N[C@@H](CCC(=O)O)C(=O)O)cc3)c2c(=O)[nH]1", "viability [%]": 81.7}
{"Compound": "Nc1nc(O)c2ncn(COC(CO)CO)c2n1", "viability [%]": 97.4}
{"Compound": "C[C@@H]1O[C@@H](OC[C@H]2O[C@@H](Oc3c(-c4ccc(O)c(O)c4)oc4cc(O)cc(O)c4c3=O)[C@H](O)[C@@H](O)[C@@H]2O)[C@H](O)[C@H](O)[C@H]1O", "viability [%]": 105}
{"Compound": "CN(C/C=C/C#CC(C)(C)C)Cc1cccc2ccccc12", "viability [%]": 97.6}
{"Compound": "Cc1nnc(SCC2=C(C(=O)O)N3C(=O)[C@@H](NC(=O)Cn4cnnn4)[C@H]3SC2)s1", "viability [%]": 96.4}
{"Compound": "CCCCOc1ccc(C(=O)CCN2CCCCC2)cc1", "viability [%]": 100}
{"data": "Study 3", "Compound": "Cc1ncsc1-c1ccc([C@H](C)NC(=O)[C@@H]2C[C@@H](O)CN2C(=O)[C@@H](NC(=O)CNC(=O)c2ccc(F)c(-c3ccc(N4C[C@@H](C)N(C)[C@@H](C)C4)c(NC(=O)c4c[nH]c(=O)cc4C(F)(F)F)c3)c2)C(C)(C)C)cc1", "cell line": "MV4-11", "technique": "ATPlite", "time": "5 days", "relative to": "DMSO"}
{"conditions": "0.0063 µM", "viability": "51.6% and 57.6% and 55.5% and 81%"}
{"conditions": "0.00271 µM", "viability": "67.5% and 62.9%"}
{"conditions": "0.185 µM", "viability": "13.9% and 14.3% and 10.8%"}
{"conditions": "0.0012 µM", "viability": "73.3% and 82.9% and 118% and 99.2%"}
{"conditions": "0.0794 µM", "viability": "17.5% and 20.1% and 27.2% and 22.5%"}
{"data": "Study 4", "SMILES": "CCOC(=O)c1ccc(OC(=O)CCCCCNC(=N)N)cc1", "concentration": "10 µM"}
{"target": "Genome polyprotein (Hepatitis C virus genotype 1b, UniProt Q9WMX2)", "test": "protease activity, inhibitor", "inhibition [%]": 29}
{"target": "TNFAIP3 (Homo sapiens, UniProt P21580)", "test": "enzyme activity, inhibitor", "inhibition [%]": 4}
{"target": "Caspase-6 (CASP6, Homo sapiens, UniProt P55212)", "test": "enzyme activity, inhibitor", "inhibition [%]": 0}
{"target": "Beta-secretase 1 (BACE1, Homo sapiens, UniProt P56817)", "inhibition [%]": 0}
{"target": "Prolyl endopeptidase (PREP, Homo sapiens, UniProt P48147)", "inhibition [%]": 27}
{"target": "Genome polyprotein, NS3 protease (Hepatitis C virus genotype 1b, UniProt Q9WMX2, R1181Q)", "inhibition [%]": 12}
{"target": "Genome polyprotein, NS3 protease (Hepatitis C virus genotype 1b, UniProt Q9WMX2, R1181K)", "inhibition [%]": 0}
{"note": "A few entries again (study 1):"}
{"target": "Ribosomal protein S6 kinase alpha-5, N-terminal kinase domain (RPS6KA5, Homo sapiens, UniProt O75582)", "remaining binding [%]": 100}
{"target": "Fibroblast growth factor receptor 3 (FGFR3, Homo sapiens, UniProt P22607)", "remaining binding [%]": 100}
{"target": "Tyrosine-protein kinase ABL1, phosphorylated (ABL1, Homo sapiens, UniProt P00519, Y253F)", "remaining binding [%]": 72}
{"target": "Dual specificity testis-specific protein kinase 1 (TESK1, Homo sapiens, UniProt Q15569)", "remaining binding [%]": 100}
